Results pooled from the literature.
Protocols differ between the studies behind these lines.
Organism: Candida albicans

OC(Cn1cncn1)(Cn1cncn1)c1ccc(F)cc1F — MIC (CGMCC 2.209; 48 h, drug alone): 8 µM
CCOC(=O)C(Cc1ccccc1)NC(=O)N1CCN(CC(OCc2cccc(C)c2)c2ccc(Cl)cc2)CC1 (stereo not shown) — MIC (microbial growth, broth dilution; DSY654): 4 µg/mL
Cc1ccc2nc(C)c(C(=O)C(=O)N(C)C)n2c1 — MIC (microbial growth, broth dilution): > 128 µM
CC[C@H](C)[C@H](NC(=O)[C@H](CCCCN)NC(=O)[C@@H](NC(=O)[C@@H](NC(=O)[C@H](CC(C)C)NC(=O)[C@H](CCCNC(=N)N)NC(=O)[C@@H](NC(=O)[C@H](CC(C)C)NC(=O)[C@H](CCCNC(=N)N)NC(=O)CNC(=O)[C@H](Cc1ccccc1)NC(=O)[C@@H](N)CCCNC(=N)N)[C@@H](C)CC)[C@@H](C)CC)C(C)C)C(=O)N[C@@H](C)C(=O)N[C@@H](CCCNC(=N)N)C(=O)N[C@@H](CCCNC(=N)N)C(=O)N[C@@H](C)C(=O)N[C@@H](Cc1c[nH]cn1)C(=O)N[C@@H](CCCNC(=N)N)C(=O)N[C@@H](C)C(=O)N[C@@H](CCCNC(=N)N)C(=O)N[C@@H](CO)C(=O)N[C@@H](C)C(=O)N[C@H](C(=O)N[C@@H](CCCCN)C(=O)N[C@@H](C)C(=O)N[C@@H](C)C(=O)N[C@@H](CO)C(=O)N[C@@H](CC(N)=O)C(=O)N[C@H](C(=O)N[C@@H](C)C(=O)N[C@@H](C)C(=O)N[C@@H](CC(C)C)C(=O)N[C@@H](C)C(=O)N[C@@H](Cc1c[nH]cn1)C(=O)NCC(=O)N[C@@H](C)C(=O)O)C(C)C)C(C)C — MIC (broth microdilution; 36 h, 35 °C): > 8.25 µM
CC(C)C[C@H](NC(=O)[C@H](CC(C)C)NC(=O)[C@H](CCCCN)NC(=O)CNC(=O)[C@H](CC(C)C)NC(=O)CNC(=O)[C@H](CO)NC(=O)[C@H](CC(C)C)NC(=O)[C@H](CC(C)C)NC(=O)[C@H](CO)NC(=O)[C@H](CCCCN)NC(=O)[C@H](CC(C)C)NC(=O)[C@H](CCCCN)NC(=O)[C@H](CCCCN)NC(=O)[C@H](C)NC(=O)[C@H](C)NC(=O)[C@H](C)NC(=O)CNC(=O)[C@H](CO)NC(=O)[C@H](Cc1c[nH]c2ccccc12)NC(=O)[C@@H](N)CCCCN)C(=O)O — MIC (broth microdilution; ATCC 10231; 44 h, 37 °C): 100 µM
CCCCCCCC(=O)NCCCC[C@H](NC(=O)CCCCCCC)C(=O)N[C@@H](CCCCNC(=O)CCCCCCC)C(=O)NCC(=O)NCC(=O)NCC(=O)N[C@@H](CS)C(=O)N[C@@H](CCCNC(=N)N)C(=O)N[C@@H](CCCCN)C(=O)N1CCC[C@H]1C(=O)N[C@@H](CS)C(=O)N[C@@H](CCCNC(=N)N)C(=O)N[C@@H](CCCCN)C(=O)N1CCC[C@H]1C(N)=O — MIC (broth microdilution; 56452, RPMI-1640; 48 h, 30 °C): 8 µM
CN(C=O)CP(=O)(O)CCC(=O)O — MIC (microbial growth, broth dilution; SC5314; 24 h): > 128 µg/mL
CCCCCCCCCCCC(=O)NCCCC[C@H](NC(=O)CCCCCCCCCCC)C(=O)N[C@@H](CCCCNC(=O)CCCCCCCCCCC)C(=O)NCC(=O)NCC(=O)NCC(=O)N[C@@H](CS)C(=O)N[C@@H](CCCNC(=N)N)C(=O)N[C@@H](CCCCN)C(=O)N1CCC[C@H]1C(=O)N[C@@H](CS)C(=O)N[C@@H](CCCNC(=N)N)C(=O)N[C@@H](CCCCN)C(=O)N1CCC[C@H]1C(N)=O — MIC (broth microdilution; fluconazole-resistant 56214, RPMI-1640; 48 h, 30 °C): > 128 µM
COC(=O)c1ccc(COC(CN2CCN(C(=O)NCc3ccc(OC)cc3)CC2)c2ccc(Cl)cc2)cc1 (stereo not shown) — MIC (microbial growth, broth dilution; DSY654): 8 µg/mL
Cc1ccc2nc(C)c(C(=O)NCc3ccccc3)n2c1 — MIC (microbial growth, broth dilution): > 128 µM
O=C(CCCN1CCC(O)(c2ccc(Cl)cc2)CC1)c1ccc(F)cc1 — MIC (microbial growth, broth dilution; DSY654): 4 µg/mL
CCCCCCCC(=O)NCCCC[C@H](NC(=O)CCCCCCC)C(=O)N[C@@H](CCCCNC(=O)CCCCCCC)C(=O)NCC(=O)NCC(=O)NCC(=O)N[C@@H](CS)C(=O)N[C@@H](CCCNC(=N)N)C(=O)N[C@@H](CCCCN)C(=O)N1CCC[C@H]1C(=O)N[C@@H](CS)C(=O)N[C@@H](CCCNC(=N)N)C(=O)N[C@@H](CCCCN)C(=O)N1CCC[C@H]1C(=O)N[C@@H](CS)C(=O)N[C@@H](CCCNC(=N)N)C(=O)N[C@@H](CCCCN)C(=O)N1CCC[C@H]1C(=O)N[C@@H](CS)C(=O)N[C@@H](CCCNC(=N)N)C(=O)N[C@@H](CCCCN)C(=O)N1CCC[C@H]1C(N)=O — MIC (broth microdilution; 58288, RPMI-1640; 48 h, 30 °C): 32 µM
C=C1NC(=O)C2CSCC3NC(=O)C(CSC(C)C(NC(=S)C(Cc4cnc[nH]4)NC(=O)c4csc(C(C)NC(C)=O)n4)C(=O)N[C@H](CC(C)C(=O)NC(=O)CC(C(=O)O)NC(=O)C(C)NC3=O)C(=O)N2)NC(=O)[C@@H]2CCCN2C(=O)[C@@H](CC(C)C)NC1=O (stereo partly shown) — MIC (EUCAST broth microdilution; clinical isolate, RPMI 1640 with MOPS; pH 7.0, 37 °C, 2% glucose): > 32 µg/mL
COC(=O)c1ccc(COC(CN2CCN(C(=O)Nc3ccccc3C)CC2)c2ccc(Cl)cc2)cc1 (stereo not shown) — MIC (DSY654 (Cdr efflux pump knockout); 24 h, 35 °C): 4 µg/mL
CC[C@H](C)[C@H](NC(=O)[C@H](CCCCN)NC(=O)[C@@H](NC(=O)[C@@H](NC(=O)[C@H](CC(C)C)NC(=O)[C@H](CCCNC(=N)N)NC(=O)[C@@H](NC(=O)[C@H](CC(C)C)NC(=O)[C@H](CCCNC(=N)N)NC(=O)CNC(=O)[C@H](Cc1ccccc1)NC(=O)[C@@H](N)CCCNC(=N)N)[C@@H](C)CC)[C@@H](C)CC)C(C)C)C(=O)N[C@@H](C)C(=O)N[C@@H](CCCNC(=N)N)C(=O)N[C@@H](CCCNC(=N)N)C(=O)N[C@@H](C)C(=O)N[C@@H](Cc1c[nH]cn1)C(=O)N[C@@H](CCCNC(=N)N)C(=O)N[C@@H](C)C(=O)N[C@@H](CCCNC(=N)N)C(=O)N1CCC[C@H]1C(=O)N[C@@H](C)C(=O)N[C@H](C(=O)N[C@@H](CCCCN)C(=O)N[C@@H](C)C(=O)N[C@@H](C)C(=O)N[C@@H](CO)C(=O)N[C@@H](CC(N)=O)C(=O)N[C@H](C(=O)N[C@@H](C)C(=O)N[C@@H](CCC(=O)O)C(=O)N[C@@H](CC(C)C)C(=O)N[C@@H](C)C(=O)N[C@@H](Cc1c[nH]cn1)C(=O)NCC(=O)N[C@@H](CCC(=O)O)C(N)=O)C(C)C)C(C)C — MIC (broth microdilution; 36 h, 35 °C): > 7.99 µM
CCCCCCCC(=O)NCCCC[C@H](NC(=O)CCCCCCC)C(=O)N[C@@H](CCCCNC(=O)CCCCCCC)C(=O)NCC(=O)NCC(=O)NCC(=O)N[C@@H](CS)C(=O)N[C@@H](CCCNC(=N)N)C(=O)N[C@@H](CCCCN)C(=O)N1CCC[C@H]1C(=O)N[C@@H](CS)C(=O)N[C@@H](CCCNC(=N)N)C(=O)N[C@@H](CCCCN)C(=O)N1CCC[C@H]1C(=O)N[C@@H](CS)C(=O)N[C@@H](CCCNC(=N)N)C(=O)N[C@@H](CCCCN)C(=O)N1CCC[C@H]1C(N)=O — MIC (broth microdilution; CGMCC 2.209, RPMI-1640; 48 h, 30 °C): 16 µM
N/C(=C\C(=O)O)CP(=O)(O)O — MIC (microbial growth, broth dilution; SC5314; 24 h): > 128 µg/mL
CCCCCC(=O)NCCCC[C@H](NC(=O)CCCCC)C(=O)N[C@@H](CCCCNC(=O)CCCCC)C(=O)NCC(=O)NCC(=O)NCC(=O)N[C@@H](CS)C(=O)N[C@@H](CCCNC(=N)N)C(=O)N[C@@H](CCCCN)C(=O)N1CCC[C@H]1C(=O)N[C@@H](CS)C(=O)N[C@@H](CCCNC(=N)N)C(=O)N[C@@H](CCCCN)C(=O)N1CCC[C@H]1C(N)=O — MIC (broth microdilution; 56452, RPMI-1640; 48 h, 30 °C): 8 µM
CCCCCCCCCCCCNC=C1N=C(c2ccc[nH]2)C=C1OC.Cl — MIC (broth microdilution; ATCC 90028; 24 h): 2 µg/mL

Excerpt of the above:
CCCCCCCC(=O)NCCCC[C@H](NC(=O)CCCCCCC)C(=O)N[C@@H](CCCCNC(=O)CCCCCCC)C(=O)NCC(=O)NCC(=O)NCC(=O)N[C@@H](CS)C(=O)N[C@@H](CCCNC(=N)N)C(=O)N[C@@H](CCCCN)C(=O)N1CCC[C@H]1C(=O)N[C@@H](CS)C(=O)N[C@@H](CCCNC(=N)N)C(=O)N[C@@H](CCCCN)C(=O)N1CCC[C@H]1C(=O)N[C@@H](CS)C(=O)N[C@@H](CCCNC(=N)N)C(=O)N[C@@H](CCCCN)C(=O)N1CCC[C@H]1C(=O)N[C@@H](CS)C(=O)N[C@@H](CCCNC(=N)N)C(=O)N[C@@H](CCCCN)C(=O)N1CCC[C@H]1C(N)=O — MIC (broth microdilution; 58288, RPMI-1640; 48 h, 30 °C): 32 µM
CCOC(=O)C(Cc1ccccc1)NC(=O)N1CCN(CC(OCc2cccc(C)c2)c2ccc(Cl)cc2)CC1 (stereo not shown) — MIC (microbial growth, broth dilution; DSY654): 4 µg/mL
C=C1NC(=O)C2CSCC3NC(=O)C(CSC(C)C(NC(=S)C(Cc4cnc[nH]4)NC(=O)c4csc(C(C)NC(C)=O)n4)C(=O)N[C@H](CC(C)C(=O)NC(=O)CC(C(=O)O)NC(=O)C(C)NC3=O)C(=O)N2)NC(=O)[C@@H]2CCCN2C(=O)[C@@H](CC(C)C)NC1=O (stereo partly shown) — MIC (EUCAST broth microdilution; clinical isolate, RPMI 1640 with MOPS; pH 7.0, 37 °C, 2% glucose): > 32 µg/mL
